Results gathered from unrelated publications.
A part holds a random share of what one study measured. Changes are numbered by the printed parent chain.

Block 1 — technique: protein-binding microarray; form: double-stranded DNA, one strand shown; sample: in vitro; tested at: 250 nM; setting: 60-bp whole probe; added: salmon DNA 0.4 mg/ml; reference: random background probes; reading: higher = stronger binding; constant ends, left off below: GCCTAGCAC … GTCTTGATTCGCTTGACGCTGCTG
Target: Interferon regulatory factor 7, full length, phosphomimetic (IRF7, Homo sapiens, UniProt Q92985, residues 1-503, S101K/S471D/S472D/S475D/S476D/S477D/S483D/S484D/S487D)
UniProt Q92985, sequence (whole entry, unmodified, looked up): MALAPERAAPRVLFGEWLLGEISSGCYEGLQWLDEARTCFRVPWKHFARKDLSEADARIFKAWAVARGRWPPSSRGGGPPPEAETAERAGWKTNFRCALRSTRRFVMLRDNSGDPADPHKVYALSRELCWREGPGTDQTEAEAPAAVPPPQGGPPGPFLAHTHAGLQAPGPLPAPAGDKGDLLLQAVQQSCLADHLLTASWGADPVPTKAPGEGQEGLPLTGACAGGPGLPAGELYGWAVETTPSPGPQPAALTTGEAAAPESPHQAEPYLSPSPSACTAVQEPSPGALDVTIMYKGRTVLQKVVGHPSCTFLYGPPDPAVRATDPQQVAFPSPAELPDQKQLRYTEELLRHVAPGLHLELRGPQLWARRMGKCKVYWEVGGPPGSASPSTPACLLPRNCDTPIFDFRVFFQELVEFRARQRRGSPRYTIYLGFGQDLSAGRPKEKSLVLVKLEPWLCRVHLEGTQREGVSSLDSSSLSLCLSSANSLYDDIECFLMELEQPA
| Sequence | log fluorescence |
| --- | --- |
| GACGATCTCGGTCTCGGGACGTGCTAG | 0.111 z-score |
| AGCAGTTGGACCTCTCAGCCAGTGCTA | -1.09 z-score |
| TCAGGTTTCACTTTCCAACTGTGCTAG | 9.65 z-score |
| TTAGTTATCGGGTATCGATTAGTGCTA | 1.32 z-score |
| ATGCTGGTCACTCTCTGGGCGTGCTAG | -0.879 z-score |
| TCCTCTTTACTGCTCCACACGTGCTAG | 0.971 z-score |
| TAATGGATATATATCATTTAGTGCTAG | 0.265 z-score |
| TTAGGACTGCTTATCCTTAAGTGCTAG | 0.446 z-score |
| TCATTTCTTTTTTTCTTACTGTGCTAG | 2.34 z-score |
| TCATTTCCCTATTATATAACTGTGCTA | 4.46 z-score |
| CGAGACCTCGTCTCTATCAAAGTGCTA | -0.271 z-score |
| TTAGGTATCGGCCTGGGTTAGTGCTAG | -0.165 z-score |
| TCTCCTCCCCCTCTGCCACCGTGCTAG | 0.0822 z-score |
| TTAGGACTGCTTCTCCTTTGGTGCTAG | 0.738 z-score |
| TTAGGTTTCCTTTTCCTCTAGTGCTAG | 6.79 z-score |
| TTAGGTACCGGGTATCGGTTAGTGCTA | 1.04 z-score |
| TTAGGGCTGCTTTTCCTTTAGTGCTAG | 0.117 z-score |
| TTAGATATCAGACGGGATTAGTGCTAG | -0.266 z-score |
| TCATTTTTTTTCCTAATACTGTGCTAG | 1.5 z-score |
| GACGATATCGGGACCGGAGACGTGCTA | -0.265 z-score |
| TCAGTGTTCTTTTCTGTTACTGTGCTA | 0.272 z-score |
| ATTTTGAGGTGGAGAGATAAGTGCTAG | 0.202 z-score |
| GGGAGTGTCAATAATGACCACGTGCTA | -0.552 z-score |
| TTAGAACTGGGGTATCTATTAGTGCTA | -0.152 z-score |
| GATGGACTGGGTCTCGGGACGTGCTAG | -0.32 z-score |

Block 2 — technique: DHFR PCA, deep sequencing; sample: yeast; added: (+)-ABA 4.8 µM; reference: wild-type fitted maximum; reading: higher = stronger binding
Target: ABI1, truncated, D143A, DHFR fusion (Arabidopsis thaliana)
Setting: methotrexate growth selection, single substitutions
Starting sequence: PYL1, truncated, DHFR fusion (Arabidopsis thaliana); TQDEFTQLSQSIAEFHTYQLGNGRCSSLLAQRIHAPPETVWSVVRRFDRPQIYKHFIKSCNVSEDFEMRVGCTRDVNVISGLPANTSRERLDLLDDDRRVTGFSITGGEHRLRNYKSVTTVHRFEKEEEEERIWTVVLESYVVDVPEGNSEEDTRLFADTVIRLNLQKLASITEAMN
| Variant | relative binding score [%] |
| --- | --- |
| R132A | 91.4 |
| V43L | 61.1 |
| L169T | -0.163 |
| F157N | 0.846 |
| S117Y | 2.48 |
| G81L | -2.92 |
| W134D | 54.7 |
| D144T | 17.2 |
| R132S | 97.2 |
| S63G | 78.5 |
| G102N | -2.88 |
| E89P | -5.56 |
| P50A | -5.79 |
| G102Y | 4.22 |
| P36I | 11.1 |
| D65R | 56.3 |
| E38R | 6.23 |
| H16R | 9.56 |
| E151W | 34 |
| T106V | 97.1 |
| Q7P | 52.7 |

Block 3 — technique: RNA Bind-n-Seq; form: RNA; sample: in vitro; tested at: 365 nM; reference: no-protein control; reading: higher = stronger binding
Target: RNA binding protein fox-1 homolog 2, RRM domain, GST-SBP tag (RBFOX2, Homo sapiens, UniProt O43251-10, residues 100-194)
Setting: natural RNA segment, single round, ends assumed
Constant ends, left off below: GGGAGUUCUACAGUCCGACGAUC … UGGAAUUCUCGGGUGCCAA
Construct (chain): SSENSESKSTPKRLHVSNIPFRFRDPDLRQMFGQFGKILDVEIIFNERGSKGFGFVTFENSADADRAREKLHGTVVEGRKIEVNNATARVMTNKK
| Sequence | RBNS enrichment (R) |
| --- | --- |
| UAGGGUGACAGCAACCAAGGAUUAAGUAGUCAGUACACCAAGUUCUGGUCUGCUCAUGCUUCAUUGUCCAGAAAGCAGCAGGAAAUUGUAGUUCCGUUGUCAUCAAGCAG | 0.287 |
| AGCUGUGGAGUUCAGUCCAGGCAUGAAGACUAAAUCUGCUUUACCAAGUAAGGUGUAAGGUUGCAUGUUUCAGUCCUCUACCAUCCUGCACUGUGAGCAGCACUAUACCU | 10.2 |
| AGUGUAGGUGAUUACAUUAGCCUUUGAAGUCAACACAAAGUUUAAAACUUCCAGGAUUUUGCAAAGUUGUAUAUAUUUAAUGCUGUGCAACUGCUAAACUAUGCAGUUUU | 0.882 |
| GUUUUACAGCAGUUUUGAAAAACACAUACUAUGCCACCAAUUGUCAUAUUAUUUUUAGAUGAUGUAACAUAGCCAUCAAAAUUAAUAUUAUGUAAUGCCUAAUACUUAGU | 0.846 |
| GCUGCAGUUCAAUACAACUGCUCUUUUCACACGACUCCCUAAACUCCUUGUAACCUUCUGUAACUAUUGGAUGACGCUUUCUCCAGCUUAGCCCUAAAUAAAGCACAGUU | 0.3 |
| ACUGGGUACGCUGGACUUGGAGAGGUGACGAGAGUUUCAUGGAGAGAAAAGAGGAAACUUGGGGGGGGCGGAGUUUCCCCCACCCAAUUACCUAGCAGGAGUCGUGGAAA | 1.07 |
| GUUUGUUUUUUCAAAAUGGAAGUAAUUUAGAUUUGUUCUCCUCAUACAUAAAAUGAUUUUAGUUCAGUUUUAACCAGUGAAAACUUUGUUUUUAUGAAAAAAAAGGAAAA | 1.06 |
| GGGUCCCCUGGGCCAGCCAGCGAUUCUACUCCCUCAACGUGUAUCUCUCCUUCCCUCCCACCACCACCAGGACCCCCGGGGCUGUAGCCUCCUCUCUGAUCAGAGCCGAC | 0.782 |
| GCUCUAACCCCAAAUUCUAGUAUCCAAAAGUAUUUUUAUUUGUAUAAUGCUAUCUGAAAAAUGUGUUUAUAUUAUAUUUUCAGAGCUGCAAUUCUUAUUCGCCAUUUCAA | 0.816 |
| AGCCAUCUGGCCUACCCUCUCAGGAAAUGGGUUGUCCUGUAGAGUUCUCUACCCUUUUAAAGGCAAAAGUAUUGGGAUGCAAUACUAUCUUAAUGUCCCUAUCUGUGGUG | 0.31 |
| UGCCCCCUCAUGAUCCUCGUUCCCUCUCACUGCUCCCCUUUGCUGGGGAGUGAGGGUGGAACCUAUGAGGAAAACAGCUCAGGUUUUAUUGCUGGGAAUAGACAACCUCA | 0.246 |
| GGUAGAGAAGGAAAGGCUGUCCCCGACAGCAGCCAGAAGUCUGUGGGAGUGAGGUCAUUCCUGACCCGUGAUGCUUUCAAGGCUUGGUUUUUCUGAUAAUUAUUUUUGCC | 0.642 |

Block 4 — target: CCND2, cyclin fold, Cln2 fusion (human); technique: yeast growth competition, sequencing; sample: yeast; setting: weak parent motif; reference: not given; reading: higher = stronger binding
Starting sequence: CDC25A docking peptide (human); PPHRRRLLFACSP; partner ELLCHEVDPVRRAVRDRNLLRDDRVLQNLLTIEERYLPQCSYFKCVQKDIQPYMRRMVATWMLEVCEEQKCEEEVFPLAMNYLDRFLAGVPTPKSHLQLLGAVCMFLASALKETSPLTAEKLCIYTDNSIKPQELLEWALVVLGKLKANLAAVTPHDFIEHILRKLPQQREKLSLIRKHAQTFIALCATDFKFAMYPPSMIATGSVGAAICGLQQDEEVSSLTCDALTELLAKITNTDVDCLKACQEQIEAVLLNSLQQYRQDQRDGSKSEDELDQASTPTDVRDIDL
| Variant | normalised enrichment score |
| --- | --- |
| PPHRAAAAFACSP [R5A R6A L7A L8A] | -0.0597 |
| PPHFRRLLFACSP [R4F] | 0.164 |
| LPHRRRLLFACSP [P1L] | 0.0386 |
| PPHHRRLLFACSP [R4H] | -0.115 |
| PPHRRRLLFACSS [P13S] | 0.155 |
| PPHRLRLLFACSP [R5L] | 0.405 |
| PPHRPRLLFACSP [R5P] | -0.0262 |
| PPYRRRLLFACSP [H3Y] | 0.148 |
| PPGRRRLLFACSP [H3G] | 0.131 |
| PPHRWRLLFACSP [R5W] | -0.241 |
| PPHRRALLFACSP [R6A] | 0.00684 |
| PPHRSRLLFACSP [R5S] | -0.0271 |
| PPHRRRMLFACSP [L7M] | 0.0337 |
| APHRRRLLFACSP [P1A] | 0.172 |
| PPHRRRLLGACSP [F9G] | 0.521 |
| PPHRRRLLFAESP [C11E] | 0.315 |
| PPHRRELLFACSP [R6E] | 0.0205 |
| PPHMRRLLFACSP [R4M] | -0.132 |

Block 5 — target: CEBPB, bZIP domain (human); technique: DHFR protein complementation; sample: yeast; reference: wild-type JUN-FOS pair; reading: higher = stronger binding
Setting: single substitutions, most at no-binding floor
Starting sequence: JUN, bZIP domain (human); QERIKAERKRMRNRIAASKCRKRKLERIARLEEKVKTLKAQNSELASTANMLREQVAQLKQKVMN; partner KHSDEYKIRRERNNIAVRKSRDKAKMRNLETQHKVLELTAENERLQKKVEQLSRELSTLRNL
| Variant | binding fitness |
| --- | --- |
| S43I | -1.31 natural log |
| Q41S | -1.51 natural log |
| L52G | -1.52 natural log |
| A29N | -1.33 natural log |
| A57M | -1.42 natural log |
| M51R | -1.2 natural log |
| K36G | -1.42 natural log |
| M51W | -1.32 natural log |
| V35S | -1.49 natural log |
| I28G | -1.19 natural log |
| E44W | -1.51 natural log |
| I28P | -1.26 natural log |
| S47M | -1.18 natural log |
| V35C | -1.44 natural log |
| L38P | -1.51 natural log |
| T37E | -1.05 natural log |
| S47V | -1.21 natural log |
| S43C | -1.22 natural log |
| A49E | -1.39 natural log |
| L45D | -1.59 natural log |
| K34R | -1.08 natural log |
| L45K | -1.44 natural log |
| L38G | -1.41 natural log |

Repeated from above (block 1):
| Sequence | log fluorescence |
| --- | --- |
| TTAGGTACCGGGTATCGGTTAGTGCTA | 1.04 z-score |
| GGGAGTGTCAATAATGACCACGTGCTA | -0.552 z-score |
| CGAGACCTCGTCTCTATCAAAGTGCTA | -0.271 z-score |
| TTAGATATCAGACGGGATTAGTGCTAG | -0.266 z-score |
| GACGATATCGGGACCGGAGACGTGCTA | -0.265 z-score |
| TTAGGACTGCTTCTCCTTTGGTGCTAG | 0.738 z-score |
| TCATTTCTTTTTTTCTTACTGTGCTAG | 2.34 z-score |
| TCATTTCCCTATTATATAACTGTGCTA | 4.46 z-score |
| ATTTTGAGGTGGAGAGATAAGTGCTAG | 0.202 z-score |
| TTAGTTATCGGGTATCGATTAGTGCTA | 1.32 z-score |
| ATGCTGGTCACTCTCTGGGCGTGCTAG | -0.879 z-score |
| TTAGGTATCGGCCTGGGTTAGTGCTAG | -0.165 z-score |
| TTAGGACTGCTTATCCTTAAGTGCTAG | 0.446 z-score |
